Experimental data from different studies.
± gives the spread as reported.

CC(C)(C)c1cc(-n2nc3ccccc3n2)c(O)c(C(C)(C)C)c1
daily dermal exposure dose (human aged 3-6 years; concentration not given, sunscreen, 95th percentile): 6.38 ng/kg/day

CCc1ccc(CC/C=C/c2ccc3c(c2)C(=O)CC3)cc1
Basophil percentage (Sprague-Dawley rat, male; oral, 120 mg/kg/day, 14 days): 0.33%

O=C(O)C(O)(c1cccs1)c1cccs1
dose-normalised AUC(0-24) (human, CSF; 2 mg once daily, 5 days, median): 0.38 (ng·h/mL)/mg

C[C@@H](NC(=O)N1C(=O)[C@H](Cc2ccnc(N)c2)[C@H]1C(=O)O)C1CCCCC1
incidence of elevated creatine phosphokinase (healthy adult Chinese volunteers; continuous intravenous infusion, 2.25 mg/kg/h, 5-day infusion, CTCAE 5.0 grading): 0%

[O-][S+]1CCc2nc(N3CCC(c4ncc(Cl)cn4)CC3)nc(NC3(CO)CCC3)c21 (stereo not drawn)
subjects with adverse events (phase I trial, measured: anal fistula; idiopathic pulmonary fibrosis patients; 18 mg twice daily): 10%

CCOC(=O)C1=C[C@@H](OC(CC)CC)[C@H](NC(C)=O)[C@@H](N)C1
elimination rate constant (Sprague-Dawley rat male, plasma and urine; oral, 30 mg/kg): 1.49 h⁻¹

CC(C)[C@@H]1NC(=O)CNC(=O)[C@H](CC(N)=O)NC(=O)[C@H](CCCNC(=N)N)NC(=O)[C@H](Cc2ccc(O)cc2)NC(=O)[C@H](C(C)C)NC(=O)[C@@H](NC(=O)[C@@H](NC(=O)[C@H](CC(N)=O)NC(=O)[C@H](Cc2c[nH]c3ccccc23)NC(=O)[C@H](C)NC(=O)[C@H](Cc2ccccc2)NC(=O)CN)C(C)C)CSSC[C@@H](C(=O)N[C@@H](Cc2cnc[nH]2)C(=O)N[C@@H](CCCNC(=N)N)C(=O)N[C@@H](CCCNC(=N)N)C(=O)N[C@@H](C)C(=O)N[C@@H](CC(N)=O)C(N)=O)NC(=O)[C@H](C(C)C)NC(=O)[C@H](CCCNC(=N)N)NC1=O
total protein (ICR mice, serum; intraductal mammary, 5 mg/kg, day 5): 54 ± 1.11 g/L

CCc1cc(C(=O)NC)c2nccc(N3CCc4c(cc(Cn5ccnc5)cc4-c4cn(C)nc4C(F)(F)F)C3=O)c2c1
fraction of dose excreted (Sprague Dawley rats, male, bile duct-cannulated, bile; oral, 50 mg/kg, 24 h): 0.5 ± 0.4%

COc1cc2c(Oc3ccc4[nH]c(C)cc4c3F)ccnc2cc1OCC1(N)CC1
grade 1 or 2 Rash (paediatric recurrent refractory sarcoma; 12 mg): 18.2%

Cc1cc(C)c(CNC(=O)c2cc(Cl)c3c(c2C)O[C@@](C)([C@H]2CC[C@H](N(C)C)CC2)O3)c(=O)[nH]1
Pneumonia incidence (human, relapsed/refractory NHL; concentration not given, all TEAEs, grade 5): 0%

O=S(=O)(Nc1ccccc1)c1ccc(NC(=S)Nc2ccccc2)cc1
relative organ weight (mouse, male, lung; oral, 5 mg/kg daily, 14 days; relative to: body weight): 0.84%

CCCCCCCCCCCCCCCC(=O)N[C@@H](CCC(=O)NCCCC[C@H](NC(=O)[C@H](CC(=O)O)NC(=O)[C@H](CO)NC(=O)[C@@H](NC(=O)[C@H](Cc1ccccc1)NC(=O)[C@@H](NC(=O)CNC(=O)[C@H](CCC(N)=O)NC(=O)[C@H](CO)NC(=O)[C@@H](N)Cc1c[nH]cn1)[C@@H](C)O)[C@@H](C)O)C(=O)N[C@@H](CO)C(=O)N[C@@H](CCC(=O)O)C(=O)N[C@@H](Cc1ccc(O)cc1)C(=O)N[C@@H](CC(C)C)C(=O)N[C@@H](CC(=O)O)C(=O)N[C@@H](CO)C(=O)N[C@@H](CCC(=O)O)C(=O)N[C@@H](CCCNC(=N)N)C(=O)N[C@@H](C)C(=O)N[C@@H](CCCNC(=N)N)C(=O)N[C@@H](CC(=O)O)C(=O)N[C@@H](Cc1ccccc1)C(=O)N[C@H](C(=O)N[C@@H](C)C(=O)N[C@@H](Cc1c[nH]c2ccccc12)C(=O)N[C@@H](CC(C)C)C(=O)N[C@@H](CCC(=O)O)C(=O)N[C@@H](C)C(=O)NCC(=O)NCC(=O)O)C(C)C)C(=O)O
treatment-related adverse events (measured: Vomiting; humans CrCl 30 to 45 mL/min; subcutaneous, 100 µg single dose): 18.2%

CC[C@H](C)CCCCC(=O)N[C@@H](CCN)C(=O)N[C@H](C(=O)N[C@@H](CCN)C(=O)N[C@H]1CCNC(=O)[C@H]([C@@H](C)O)NC(=O)[C@H](CCN)NC(=O)[C@H](CCN)NC(=O)[C@H](CC(C)C)NC(=O)[C@@H](Cc2ccccc2)NC(=O)[C@H](CCN)NC1=O)[C@@H](C)O
dose-normalised fAUC(0-24) steady state (human, critically ill, AKI, plasma; intravenous, dose not given, mean): 0.67 mg·h/L per mg

CO[C@H]1C[C@@H]2CC[C@@H](C)[C@@](O)(O2)C(=O)C(=O)N2CCCC[C@H]2C(=O)O[C@H]([C@H](C)C[C@@H]2CC[C@@H](OC(=O)NCCOCCOCCOCCOCCOCCOCCOCCOCCC(=O)N3CCc4cc(Cn5nc(-c6ccc7oc(N)nc7c6)c6c(N)ncnc65)ccc4C3)[C@H](OC)C2)C[C@@H](O)[C@H](C)/C=C(\C)[C@@H](O)[C@@H](OC)C(=O)[C@H](C)C[C@H](C)/C=C/C=C/C=C/1C
incidence of any SAE (patients with advanced solid tumours; intravenous, 1.6 mg/3 mg weekly, any grade): 20%

NCCCC[C@@H]1NC(=O)[C@@H](Cc2c[nH]c3ccccc23)NC(=O)[C@H](c2ccccc2)NC(=O)[C@@H]2C[C@@H](OC(=O)NCCN)CN2C(=O)[C@H](Cc2ccccc2)NC(=O)[C@H](Cc2ccc(OCc3ccccc3)cc2)NC1=O
subjects with dry mouth (healthy human volunteers; 1950 µg twice daily): 6%

O=C(Nc1ccc2c(c1)B(O)OC2)c1cccc(OCc2ccccc2)c1
membrane retention (PAMPA; 200 µM, 5 h, pH 7.4): 16.9%

O=C(Nc1ccccc1)C1CCN(C(=O)Oc2cccnc2)CC1
subjects with Dysmenorrhoea adverse event (adverse event reporting; healthy women; oral, 60 mg, 7 days): 14.3%

CC(=O)c1c(C)c2cnc(Nc3ccc(C4CCN(CCS(C)(=O)=O)CC4)cn3)nc2n(C2CCCC2)c1=O
AUC(0-t) (human, plasma; oral, 25 mg once daily, day 1, single dose): 354 ng·h/mL

Fc1ccc([C@@H]2CCNC[C@H]2COc2ccc3c(c2)OCO3)cc1
List of Complaints score (measured: Perspiration; healthy volunteers; oral, dose not given, given -1 h relative to LSD, together with: LSD; direction not given): 0 score

CCN1[C@@H](C(=O)NC23CCC(C(=O)O)(CC2)CC3)[C@H](c2cccc(Cl)c2F)[C@]2(C(=O)Nc3cc(Cl)ccc32)C12CCCCC2
abdominal pain incidence (patients with advanced solid tumours; oral, 150 mg): 12.5%

CCCC1CCC(C2CCC(c3ccc(F)c(F)c3)CC2)CC1 (stereo not drawn)
fetal accumulation (rat, fetus; 5000 ng/mL in perfusate, high dose, mixture of 21 LCMs): 1.63 ± 1.56 ng/g

C[C@]1(CO)Cc2ncn(-c3ccc(C#N)c(Cl)c3)c2C(=O)O1
subjects with TEAE (healthy Chinese subjects; dose not given, single dose, all doses): 25%

Clc1ccc(-c2ccccc2)cc1
alkaline phosphatase (Sprague-Dawley rats, female, serum; inhalation, 23 µg/rat, 1 h after exposure): 179 ± 8 U/L

CN1CC[C@@H](c2c(O)cc(O)c3c(=O)cc(-c4ccc(C(F)(F)F)cc4Cl)oc23)[C@@H]1CO
patients with adverse event (measured: Neutropenia; relapsed AML; oral, 200 mg, grade 3-4, intermittent dosing): 20%

O=C(O)CNCP(=O)(O)O
dose fraction in permeate (ultrafiltration; cow milk whey; 200 nM nominal in whole milk): 57.9%

COc1c(OCCCN2CCOCC2)ccc2c1N=C(NC(=O)c1cnc(N)nc1)N1CCN=C21
abdominal pain incidence (patients with advanced malignancies; intravenous, dose not given, all grades, all cohorts, together with: gemcitabine): 22%

COc1ccnc(C(=O)N[C@H]2COC(=O)[C@H](Cc3ccccc3)[C@@H](OC(=O)C(C)C)[C@H](C)OC2=O)c1OCOC(=O)C(C)C
NOAEL (developmental toxicity; New Zealand white rabbit, female; highest dose tested): 495 mg/kg/day

Repeated from above:
CCN1[C@@H](C(=O)NC23CCC(C(=O)O)(CC2)CC3)[C@H](c2cccc(Cl)c2F)[C@]2(C(=O)Nc3cc(Cl)ccc32)C12CCCCC2
abdominal pain incidence (patients with advanced solid tumours; oral, 150 mg): 12.5%

Fc1ccc([C@@H]2CCNC[C@H]2COc2ccc3c(c2)OCO3)cc1
List of Complaints score (measured: Perspiration; healthy volunteers; oral, dose not given, given -1 h relative to LSD, together with: LSD; direction not given): 0 score

NCCCC[C@@H]1NC(=O)[C@@H](Cc2c[nH]c3ccccc23)NC(=O)[C@H](c2ccccc2)NC(=O)[C@@H]2C[C@@H](OC(=O)NCCN)CN2C(=O)[C@H](Cc2ccccc2)NC(=O)[C@H](Cc2ccc(OCc3ccccc3)cc2)NC1=O
subjects with dry mouth (healthy human volunteers; 1950 µg twice daily): 6%
